Measured values of several laboratories.
Every numbered part comes from another study and shows a few of its results, in no order. Positions count from the first letter of the parent shown.

Study 1 — method: RNA Bind-n-Seq; form: RNA; matrix: in vitro; tested at: 200 nM; notes: whole 134-nt RNA, ends assumed; with: 150 mM LiCl; reference: input library; direction: higher = stronger binding; all molecules: 7-deaza-guanosine replaces G
Target: Ras GTPase-activating protein-binding protein 1, full length (G3BP1, Homo sapiens, UniProt Q13283)
Chain of UniProt Q13283 (whole entry, looked up): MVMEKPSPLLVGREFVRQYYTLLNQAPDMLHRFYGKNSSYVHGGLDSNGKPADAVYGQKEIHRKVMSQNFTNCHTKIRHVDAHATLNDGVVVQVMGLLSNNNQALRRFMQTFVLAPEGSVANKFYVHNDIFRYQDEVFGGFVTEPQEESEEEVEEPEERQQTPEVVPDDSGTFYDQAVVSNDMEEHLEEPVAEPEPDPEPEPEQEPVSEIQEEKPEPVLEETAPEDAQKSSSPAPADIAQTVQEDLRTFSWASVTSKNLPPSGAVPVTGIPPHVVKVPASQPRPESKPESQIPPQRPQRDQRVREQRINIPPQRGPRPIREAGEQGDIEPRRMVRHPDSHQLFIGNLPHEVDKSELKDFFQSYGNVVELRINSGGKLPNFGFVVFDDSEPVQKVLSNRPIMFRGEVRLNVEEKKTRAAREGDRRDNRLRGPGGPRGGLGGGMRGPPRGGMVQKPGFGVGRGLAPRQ
Oligonucleotide	log2 enrichment
GGGAGUUCUACAGUCCGACGAUCUAACCUUAGAGGAGGAUCUGAUGGAUAUGGCAGUGGACGUGGAUUUGGGGAUGGCUAUAAUGGGUAUGGAGGAGGACCUGGAGGUGGCAAUGGAAUUCUCGGGUGUCAAGG	-0.0553
GGGAGUUCUACAGUCCGACGAUCAAGUCCUGUGCUACACAUCGUAUGUACCGAAUCAAAUUUAAACCCCCAAAUUUAAAAAAGUAUUAUGUUACGCCGUUCGGAUCUGCACUUUGGAAUUCUCGGGUGUCAAGG	0.143
GGGAGUUCUACAGUCCGACGAUCAUUCUAUAAAUGGCAAGUAAGCCUGAAGUGAGGAUACUGCAAUUUUCGGAGAAAAGAACAGCAGCUCUUUAAGUGUUUGCAUUUUCUAUUUGGAAUUCUCGGGUGUCAAGG	-2.18
GGGAGUUCUACAGUCCGACGAUCUGGCCCUGGUGGCAUGCGGGGAGGAAGAGGAGGCCUCAUGGAUCGUGGUGGUCCCGGUGGAAUGUUCAGAGGUGGCCGUGGUGGAGACAGUGGAAUUCUCGGGUGUCAAGG	0.168

Study 2 — target: CCNA2, cyclin fold, Cln2 fusion (human); method: yeast growth competition, sequencing; matrix: yeast; notes: strong parent motif; reference: not given; direction: higher = stronger binding
Starting sequence: RBL1 docking peptide (human); GSAKRRLFGEDPP
Variant	normalised enrichment score
P12W	5.38
G1M	4.71
R5W	0.541
D11E	5.99
G1L	5.95

Study 3 — method: RNA Bind-n-Seq; form: RNA; matrix: in vitro; tested at: 365 nM; reference: no-protein control; direction: higher = stronger binding
Target: RNA binding protein fox-1 homolog 2, RRM domain, GST-SBP tag (RBFOX2, Homo sapiens, UniProt O43251-10, residues 100-194)
Notes: natural RNA segment, single round, ends assumed
Constant ends, left off below: GGGAGUUCUACAGUCCGACGAUC … UGGAAUUCUCGGGUGCCAA
Target sequence (chain): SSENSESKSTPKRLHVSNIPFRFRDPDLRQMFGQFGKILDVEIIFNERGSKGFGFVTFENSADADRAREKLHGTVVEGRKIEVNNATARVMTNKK
Oligonucleotide	RBNS enrichment (R)
AACAACUCCUUGCCCCCAGGGCUCUGGCUGCCAGGGCCUACUGCUGCUUUCCUGGGAAGCCGCAAGUUCAGUCAGUGGGGCACACAGGCUUUGUUUCAGCCUGGAAGUGA	0.271
GCUCUCUUCUCCUGCAAGCGUAGUCUUCACAGGGAGUGGCUUCCUGACAUUUUUUUCAGUUAUGUGAAUGAAUGGAAACCAACAGCUGCUGCAAACACUGUUUUUCCAAG	0.447
CACCCCUGGACUUGAUCAGUAUUCAACCUUGUCUCCUGUCCCCAAUGUCGUAAGCACAAUUAGACUUCUUCCGGCUUGAGUUUGCUGCCUCCUACAGCAAGGACAGGAAU	0.495
UUCAUAAUUGGUGCAGAAAGAAGAAAUGAUCUGAAGAUGUGUUAAAUGGAUUGCAGGGGAAGGAAGGCCCAGGGCCCUGUGUGUCAUGCCCUCUUGGGUUCCUAAGUUCU	0.764
ACUUUGAAAGAUAACAUUUUAUUAUGAUGGUGCUAGGUAAAAAAUUGUAAAGACUGGGAUGGUUGUGUGGAAAACUUUUCUUGAGAGAACCUAUUGAAAGGAAUUUGUUG	0.939

Single results of other studies
Molecule	target	test	test system	conditions	scale	quantity	result
PhoQ, residues 284 288 289 292 302 303 ALSMDL	PhoP, residues 12 14 15 18 19 SGWQI (Escherichia coli, UniProt P23836)	Sort-seq, refers to: YFP reporter	E. coli	PhoQ-PhoP variant library, with: 10 µM Mg2+	reference: high Mg2+ state, higher = stronger signaling	fold induction	18.5
